# Published values from different studies.
# Numbered parts are unrelated; each lists some results of a single study.

# Block 1 — method: universal PBM; molecule type: double-stranded DNA, one strand shown; matrix: in vitro; tested at: not given; reading: higher = stronger binding
# Target: Sal-like protein 4, full length isoform B (SALL4, Homo sapiens, UniProt Q9UJQ4-2, residues 1-616)
# Setting: 8-mer, flanks averaged, mean of replicates
# Residues (chain): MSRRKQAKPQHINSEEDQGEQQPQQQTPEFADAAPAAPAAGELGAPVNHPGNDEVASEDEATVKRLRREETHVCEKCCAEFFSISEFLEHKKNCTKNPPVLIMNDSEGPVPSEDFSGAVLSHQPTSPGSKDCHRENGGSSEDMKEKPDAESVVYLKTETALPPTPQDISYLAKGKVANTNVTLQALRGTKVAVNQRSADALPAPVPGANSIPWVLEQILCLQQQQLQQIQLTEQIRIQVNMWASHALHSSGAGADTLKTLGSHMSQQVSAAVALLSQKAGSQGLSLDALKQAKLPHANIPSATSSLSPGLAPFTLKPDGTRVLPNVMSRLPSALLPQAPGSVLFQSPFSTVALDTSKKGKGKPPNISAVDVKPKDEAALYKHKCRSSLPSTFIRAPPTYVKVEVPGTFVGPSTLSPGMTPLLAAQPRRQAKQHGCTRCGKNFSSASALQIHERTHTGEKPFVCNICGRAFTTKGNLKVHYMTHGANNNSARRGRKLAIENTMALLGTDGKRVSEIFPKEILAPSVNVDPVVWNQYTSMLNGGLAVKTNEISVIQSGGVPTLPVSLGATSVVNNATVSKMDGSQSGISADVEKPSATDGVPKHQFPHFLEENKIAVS
Oligonucleotide,E-score
GTAGGGTA,0.159
ATCCAAAT,0.294
AATATTCA,0.399
ACGTTCGG,-0.253
CGGGTGTC,-0.277

# Block 2 — method: protein binding microarray; molecule type: double-stranded DNA, one strand shown; matrix: in vitro; tested at: not given; relative to: not given; reading: higher = stronger binding
# Target: Histone acetyltransferase KAT6A, both winged helices, GST fusion (KAT6A, Homo sapiens, UniProt Q92794, residues 1-181)
# Setting: 8-mer, flanks averaged, mean of 2 arrays, mostly near background
# Target sequence (chain): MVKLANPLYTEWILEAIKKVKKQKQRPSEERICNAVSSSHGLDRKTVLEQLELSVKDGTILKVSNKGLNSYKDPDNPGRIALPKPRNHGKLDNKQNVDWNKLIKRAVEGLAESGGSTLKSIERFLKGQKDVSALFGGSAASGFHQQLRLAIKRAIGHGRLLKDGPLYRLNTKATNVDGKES
Oligonucleotide,E-score
CCTCCATA,-0.0551
AGACTAAT,-0.131
CTGACGGA,0.11
CTCTAATA,-0.0836

# Block 3 — method: aptamer microarray, sandwich; molecule type: DNA with 2'F-ANA; matrix: in vitro; tested at: 200 nM; added: Cy3 exosite-II aptamer, 400 nM; reading: higher = stronger binding; oligonucleotide: GGTTGGTGTGGTTGG
# Target: Prothrombin, mature alpha-thrombin (F2, Homo sapiens, UniProt P00734)
# Setting: whole 15-mer aptamer, many near background
Modification,mean fluorescence intensity [a.u.]
2'F-ANA at 1 2 4 7 8 10 13 15,48
2'F-ANA at 2 8 9 11 13,338
2'F-ANA at 2 4 5 6 7 9 12 13 14,46.3
2'F-ANA at 2 3 6 7 8 10 11 15,301
2'F-ANA at 2 4 5 9 11 15,55.2

# Other studies, line by line
Molecule,target,test,system,setting,scale,measurement,value
"PhoQ, residues 284 288 289 292 302 303 SLKLQV","PhoP, residues 12 14 15 18 19 LHSVW (Escherichia coli, UniProt P23836)","Sort-seq, item: YFP reporter",E. coli,"PhoQ-PhoP variant library, added: 10 µM Mg2+","relative to: high Mg2+ state, higher = stronger signaling",fold induction,3.04

# Excerpt of the above (block 1):
Oligonucleotide,E-score
AATATTCA,0.399
